Measurements from different studies.
Lines come from different studies, so protocols differ. Numbers after ± are the reported error.
Target: Apoptosis regulator Bcl-2 (BCL2, Homo sapiens, UniProt P10415)

Structure (SMILES)	effect on	method	pH	temperature	together with	quantity	value
CC1=C(C2=C(C)C(=O)c3c(cc(O)c(O)c3C(C)C)C2=O)C(=O)c2cc(O)c(O)c(C(C)C)c2C1=O (racemic)	ligand displacement	FP	–	–	–	IC50	54 nM
CC[C@H](C)[C@H](NC(=O)[C@H](Cc1c[nH]c2ccccc12)NC(=O)[C@@H](NC(=O)[C@H](CCC(=O)O)NC(=O)[C@@H]1CCCN1C(=O)[C@H](CCCNC(=N)N)NC(C)=O)[C@@H](C)CC)C(=O)N[C@@H](C)C(=O)N[C@@H](CCC(N)=O)C(=O)N[C@@H](CCC(=O)O)C(=O)N[C@@H](CC(C)C)C(=O)N[C@@H](CCCNC(=N)N)C(=O)N[C@@H](CCCNC(=N)N)C(=O)N[C@@H](C)C(=O)NCC(=O)N[C@@H](CCCCN)C(=O)N[C@H](C(=O)N[C@@H](CC(C)C)C(=O)N[C@@H](CC(N)=O)C(=O)N[C@@H](C)C(=O)N[C@@H](Cc1ccc(O)cc1)C(=O)N[C@@H](Cc1ccc(O)cc1)C(=O)N[C@@H](C)C(=O)N[C@@H](CCCNC(=N)N)C(N)=O)C(C)C	binding	fluorescence polarization	pH 7.8	37 °C	–	Kd	> 1000 nM
CC[C@H](C)[C@H](NC(=O)[C@H](CCCNC(=N)N)NC(=O)[C@H](CO)NC(=O)[C@H](CC(C)C)NC(=O)[C@H](CCC(=O)O)NC(=O)[C@H](CCC(N)=O)NC(=O)[C@H](C)NC(=O)[C@@H](NC(=O)[C@H](Cc1c[nH]c2ccccc12)NC(=O)[C@@H](NC(=O)[C@H](CCC(=O)O)NC(=O)[C@@H]1CCCN1C(=O)[C@H](CCCNC(=N)N)NC(=O)c1ccc2c(c1)C(=O)OC21c2ccc(O)cc2Oc2cc(O)ccc21)[C@@H](C)CC)[C@@H](C)CC)C(=O)NCC(=O)N[C@@H](CC(=O)O)C(=O)N[C@@H](CCC(=O)O)C(=O)N[C@@H](Cc1ccccc1)C(=O)N[C@@H](CC(N)=O)C(=O)N[C@@H](C)C(=O)N[C@@H](Cc1ccc(O)cc1)C(=O)N[C@@H](Cc1ccc(O)cc1)C(=O)N[C@@H](C)C(=O)N[C@@H](CCCNC(=N)N)C(N)=O	–	fluorescence anisotropy	–	–	–	Kd	7.2 ± 3.1 nM
CC1(C)CCC(CN2CCN(c3ccc(C(=O)NS(=O)(=O)c4ccc(NCC5COCCO5)c([N+](=O)[O-])c4)c(N4CCCOc5nc6[nH]ccc6cc54)c3)CC2)=C(c2ccc(Cl)cc2)C1 (stereo not shown)	ligand displacement	–	–	–	–	IC50	0.25 nM
C[N+](C)(CC[C@H](CSc1ccccc1)Nc1ccc(S(=O)(=O)NC(=O)c2ccc(N3CCN(Cc4ccccc4-c4ccc(Cl)cc4)CC3)cc2)cc1[N+](=O)[O-])CC(=O)[O-]	ligand displacement	FP	–	–	–	Ki	500 nM
CN(C)CC[C@H](CSc1ccccc1)Nc1ccc(S(=O)(=O)NC(=O)c2ccc3c(c2)CC[C@@H]2CN(Cc4ccccc4-c4ccc(Cl)cc4)CCN32)cc1[N+](=O)[O-]	ligand displacement	FP	–	–	–	IC50	131 nM
CC[C@H](C)[C@H](NC(C)=O)C(=O)N[C@H](CC(=O)N[C@H](C(=O)N[C@@H](C)C(=O)N[C@@H](CCC(N)=O)C(=O)N[C@@H](CCC(=O)O)CC(=O)N[C@@H](CC(C)C)C(=O)N[C@@H](CCCNC(=N)N)C(=O)N[C@@H](CCCNC(=N)N)CC(=O)N[C@H](C(=O)NCC(=O)N[C@@H](CC(=O)O)C(=O)N[C@@H](CCC(=O)O)CC(=O)N[C@@H](Cc1ccccc1)C(=O)N[C@@H](CC(N)=O)C(=O)N[C@@H](C)CC(=O)N[C@@H](Cc1ccc(O)cc1)C(=O)N[C@@H](Cc1ccc(O)cc1)C(N)=O)[C@@H](C)CC)[C@@H](C)CC)Cc1c[nH]c2ccccc12	–	competition SPR	pH 7.4	–	BimBH3 peptide	IC50	4890 ± 370 nM
CC1=C(C2=C(C)C(=O)c3c(cc(O)c(O)c3Cc3ccccc3)C2=O)C(=O)c2cc(O)c(O)c(Cc3ccccc3)c2C1=O (racemic)	ligand displacement	FP	–	–	–	IC50	21 nM
CC[C@H](C)[C@H](NC(C)=O)C(=O)N[C@H](CC(=O)N[C@H](C(=O)N[C@@H](C)C(=O)N[C@@H](CCC(N)=O)C(=O)N[C@@H](CCC(=O)O)CC(=O)N[C@@H](CC(C)C)C(=O)N[C@@H](CCCNC(=N)N)C(=O)N[C@@H](CCCNC(=N)N)C(=O)N[C@H](CC(=O)NCC(=O)N[C@@H](CC(=O)O)C(=O)N[C@@H](CCC(=O)O)C(=O)N[C@H](CC(=O)N[C@@H](CC(N)=O)C(=O)N[C@@H](C)C(=O)N[C@@H](Cc1ccc(O)cc1)C(=O)N[C@H](CC(N)=O)Cc1ccc(O)cc1)Cc1ccccc1)[C@@H](C)CC)[C@@H](C)CC)Cc1c[nH]c2ccccc12	–	competition SPR	pH 7.4	–	BimBH3 peptide	IC50	107 ± 8 nM
O=C(O)c1csc(C2COc3ccccc3O2)n1 (stereo not shown)	ligand displacement	FP	–	–	–	Ki	300000 nM

Some of these lines once more:
Structure (SMILES)	effect on	method	pH	temperature	together with	quantity	value
C[N+](C)(CC[C@H](CSc1ccccc1)Nc1ccc(S(=O)(=O)NC(=O)c2ccc(N3CCN(Cc4ccccc4-c4ccc(Cl)cc4)CC3)cc2)cc1[N+](=O)[O-])CC(=O)[O-]	ligand displacement	FP	–	–	–	Ki	500 nM
